Measured values collected from several papers.
Each line is one published result; not all experiments were run side by side. ± gives the spread as reported.
T1: DNA G4 pilE G-quadruplex (Neisseria gonorrhoeae); GGGTGGGTTGGGTGGG
T2: DNA hairpin, 8 bp stem, HEG linker; GTTATATCTTGATATAAC
UniProt Q9UH17, sequence (whole entry, looked up): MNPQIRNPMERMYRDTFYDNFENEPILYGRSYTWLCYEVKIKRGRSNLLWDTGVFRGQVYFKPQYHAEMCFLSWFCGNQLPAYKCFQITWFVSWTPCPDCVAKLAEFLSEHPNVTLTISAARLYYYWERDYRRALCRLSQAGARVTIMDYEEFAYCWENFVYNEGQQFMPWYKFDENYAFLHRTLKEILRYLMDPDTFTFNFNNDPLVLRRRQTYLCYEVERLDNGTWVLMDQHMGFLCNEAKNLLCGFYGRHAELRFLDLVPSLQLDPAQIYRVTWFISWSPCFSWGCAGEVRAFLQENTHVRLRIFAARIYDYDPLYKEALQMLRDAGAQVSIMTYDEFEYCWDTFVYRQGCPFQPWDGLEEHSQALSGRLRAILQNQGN
UniProt P23576, sequence (whole entry, looked up): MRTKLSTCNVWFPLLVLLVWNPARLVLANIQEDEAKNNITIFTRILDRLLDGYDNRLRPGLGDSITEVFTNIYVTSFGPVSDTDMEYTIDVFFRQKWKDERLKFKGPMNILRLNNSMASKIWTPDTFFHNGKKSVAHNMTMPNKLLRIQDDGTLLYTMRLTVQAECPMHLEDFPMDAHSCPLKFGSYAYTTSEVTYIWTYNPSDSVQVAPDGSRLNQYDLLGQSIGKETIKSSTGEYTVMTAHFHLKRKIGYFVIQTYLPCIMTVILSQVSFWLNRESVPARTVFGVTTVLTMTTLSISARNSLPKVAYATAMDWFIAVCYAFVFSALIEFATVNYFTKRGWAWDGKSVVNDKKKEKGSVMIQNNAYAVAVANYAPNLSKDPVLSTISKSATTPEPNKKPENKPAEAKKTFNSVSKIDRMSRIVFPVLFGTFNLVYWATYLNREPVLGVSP
UniProt C7FF04, sequence (whole entry, looked up): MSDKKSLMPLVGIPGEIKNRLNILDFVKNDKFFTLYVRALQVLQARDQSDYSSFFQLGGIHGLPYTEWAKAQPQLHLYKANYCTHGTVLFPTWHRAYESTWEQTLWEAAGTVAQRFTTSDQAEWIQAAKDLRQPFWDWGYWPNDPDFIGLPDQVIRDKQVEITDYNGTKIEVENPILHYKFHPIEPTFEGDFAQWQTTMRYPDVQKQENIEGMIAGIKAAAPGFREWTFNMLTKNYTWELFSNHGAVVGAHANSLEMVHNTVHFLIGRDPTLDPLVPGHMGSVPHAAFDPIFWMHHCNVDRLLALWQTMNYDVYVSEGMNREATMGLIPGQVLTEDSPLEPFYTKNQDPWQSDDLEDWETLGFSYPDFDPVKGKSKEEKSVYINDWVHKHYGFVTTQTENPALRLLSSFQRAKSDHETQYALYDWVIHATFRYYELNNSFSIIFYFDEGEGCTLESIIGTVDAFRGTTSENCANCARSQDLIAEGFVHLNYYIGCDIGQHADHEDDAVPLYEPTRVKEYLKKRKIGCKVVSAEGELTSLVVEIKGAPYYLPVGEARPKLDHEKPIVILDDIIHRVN
UniProt P63138, sequence (whole entry, looked up): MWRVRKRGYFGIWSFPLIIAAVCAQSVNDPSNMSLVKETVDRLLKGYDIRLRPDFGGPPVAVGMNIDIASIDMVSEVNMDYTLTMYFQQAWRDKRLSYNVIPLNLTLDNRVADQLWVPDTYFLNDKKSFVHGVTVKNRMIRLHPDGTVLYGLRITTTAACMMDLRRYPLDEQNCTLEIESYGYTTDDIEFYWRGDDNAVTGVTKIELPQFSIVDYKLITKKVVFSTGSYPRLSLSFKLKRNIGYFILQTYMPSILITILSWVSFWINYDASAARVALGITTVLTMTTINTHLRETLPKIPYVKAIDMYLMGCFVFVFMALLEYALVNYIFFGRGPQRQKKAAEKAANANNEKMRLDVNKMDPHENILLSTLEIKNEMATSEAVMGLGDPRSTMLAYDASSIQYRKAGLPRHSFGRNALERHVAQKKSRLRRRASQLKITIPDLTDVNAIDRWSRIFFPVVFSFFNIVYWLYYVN
UniProt P53341, sequence (whole entry, unmodified, looked up): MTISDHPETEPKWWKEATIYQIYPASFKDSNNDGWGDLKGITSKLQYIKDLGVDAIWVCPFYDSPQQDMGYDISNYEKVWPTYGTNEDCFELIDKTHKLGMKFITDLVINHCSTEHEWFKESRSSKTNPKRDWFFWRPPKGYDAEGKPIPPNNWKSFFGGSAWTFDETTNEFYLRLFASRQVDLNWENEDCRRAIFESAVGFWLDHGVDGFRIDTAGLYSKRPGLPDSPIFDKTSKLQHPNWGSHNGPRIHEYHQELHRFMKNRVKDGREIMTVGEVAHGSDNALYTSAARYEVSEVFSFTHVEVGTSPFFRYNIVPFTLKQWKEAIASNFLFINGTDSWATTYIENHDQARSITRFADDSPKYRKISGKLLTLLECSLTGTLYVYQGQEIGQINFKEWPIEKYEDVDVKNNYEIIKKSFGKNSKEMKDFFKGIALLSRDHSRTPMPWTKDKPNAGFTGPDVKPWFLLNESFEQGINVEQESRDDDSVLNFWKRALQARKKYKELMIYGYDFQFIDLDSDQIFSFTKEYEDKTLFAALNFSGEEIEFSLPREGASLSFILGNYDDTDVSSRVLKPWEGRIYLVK
UniProt P25929, sequence (whole entry, unmodified, looked up): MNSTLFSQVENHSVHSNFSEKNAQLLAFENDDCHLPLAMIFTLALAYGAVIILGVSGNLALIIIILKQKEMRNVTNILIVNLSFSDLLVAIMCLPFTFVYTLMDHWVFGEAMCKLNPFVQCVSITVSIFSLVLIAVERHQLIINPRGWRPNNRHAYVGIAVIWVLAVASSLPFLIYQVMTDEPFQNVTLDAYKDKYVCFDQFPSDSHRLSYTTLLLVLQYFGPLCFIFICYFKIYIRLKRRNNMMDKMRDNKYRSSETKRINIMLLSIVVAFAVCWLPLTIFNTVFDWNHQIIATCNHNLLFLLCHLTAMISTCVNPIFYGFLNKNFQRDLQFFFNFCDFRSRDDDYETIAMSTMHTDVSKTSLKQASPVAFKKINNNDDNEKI
UniProt Q8I5R7, sequence (whole entry, looked up): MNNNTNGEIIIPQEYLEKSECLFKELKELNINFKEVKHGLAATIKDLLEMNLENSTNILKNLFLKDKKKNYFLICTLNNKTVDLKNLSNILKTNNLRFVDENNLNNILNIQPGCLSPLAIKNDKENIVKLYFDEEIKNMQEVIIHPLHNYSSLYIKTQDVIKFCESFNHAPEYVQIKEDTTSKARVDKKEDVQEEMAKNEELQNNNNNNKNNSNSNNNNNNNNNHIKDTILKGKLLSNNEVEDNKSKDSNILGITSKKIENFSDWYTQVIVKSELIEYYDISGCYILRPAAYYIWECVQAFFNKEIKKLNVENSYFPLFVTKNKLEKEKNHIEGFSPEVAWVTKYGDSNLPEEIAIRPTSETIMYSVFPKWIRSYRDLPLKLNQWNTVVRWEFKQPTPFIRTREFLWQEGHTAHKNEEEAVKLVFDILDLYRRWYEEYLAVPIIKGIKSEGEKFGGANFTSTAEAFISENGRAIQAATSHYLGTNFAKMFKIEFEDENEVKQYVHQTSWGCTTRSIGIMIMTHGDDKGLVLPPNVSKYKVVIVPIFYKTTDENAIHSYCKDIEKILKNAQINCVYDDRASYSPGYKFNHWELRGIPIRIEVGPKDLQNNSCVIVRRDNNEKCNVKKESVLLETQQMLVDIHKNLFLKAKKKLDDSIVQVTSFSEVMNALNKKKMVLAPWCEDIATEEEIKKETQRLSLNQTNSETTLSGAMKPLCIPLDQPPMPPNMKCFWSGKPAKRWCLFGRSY
UniProt P16113, sequence (whole entry, looked up): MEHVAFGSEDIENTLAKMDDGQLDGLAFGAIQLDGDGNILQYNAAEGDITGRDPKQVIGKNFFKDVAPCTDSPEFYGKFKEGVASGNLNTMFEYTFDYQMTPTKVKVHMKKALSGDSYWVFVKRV
UniProt Q6UWW8, sequence (whole entry, looked up): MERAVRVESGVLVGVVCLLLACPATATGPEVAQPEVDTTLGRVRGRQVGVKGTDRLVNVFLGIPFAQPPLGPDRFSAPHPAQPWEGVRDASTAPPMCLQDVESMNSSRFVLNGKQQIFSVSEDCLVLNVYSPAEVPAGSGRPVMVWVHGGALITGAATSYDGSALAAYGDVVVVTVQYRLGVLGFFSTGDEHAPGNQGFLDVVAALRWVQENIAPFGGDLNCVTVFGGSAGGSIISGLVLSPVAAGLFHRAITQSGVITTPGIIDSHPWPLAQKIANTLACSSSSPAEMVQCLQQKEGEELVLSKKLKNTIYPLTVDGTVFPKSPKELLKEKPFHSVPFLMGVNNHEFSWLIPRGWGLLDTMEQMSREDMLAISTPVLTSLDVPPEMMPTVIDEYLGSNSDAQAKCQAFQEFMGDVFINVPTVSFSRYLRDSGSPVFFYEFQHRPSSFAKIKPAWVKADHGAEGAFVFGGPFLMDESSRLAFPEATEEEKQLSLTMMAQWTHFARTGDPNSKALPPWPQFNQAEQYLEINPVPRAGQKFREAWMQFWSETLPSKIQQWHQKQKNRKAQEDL
UniProt P25787, sequence (whole entry, looked up): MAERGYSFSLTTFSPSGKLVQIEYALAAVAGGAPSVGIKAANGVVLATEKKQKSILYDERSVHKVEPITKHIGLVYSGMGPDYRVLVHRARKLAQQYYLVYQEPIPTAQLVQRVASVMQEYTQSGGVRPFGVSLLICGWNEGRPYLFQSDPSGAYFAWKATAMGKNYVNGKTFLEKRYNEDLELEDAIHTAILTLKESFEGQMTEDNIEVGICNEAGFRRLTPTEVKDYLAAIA

With `CC[C@H](C)[C@H](NC(=O)[C@H](CCCCN)NC(=O)[C@H](C)NC(=O)[C@@H](NC(=O)[C@H](CCC(=O)O)NC(=O)[C@H](CCC(=O)O)NC(=O)[C@H](CCC(=O)O)NC(=O)[C@H](CO)NC(=O)[C@H](CC(C)C)NC(=O)[C@H](CC(=O)O)NC(=O)[C@H](CC(C)C)NC(=O)CNC(=O)[C@H](CCCNC(=N)N)NC(=O)[C@H](CC(C)C)NC(=O)[C@H](CO)NC(=O)CNC(=O)CNC(=O)CNC(=O)CCCC[C@@H]1SC[C@@H]2NC(=O)N[C@@H]21)C(C)C)C(=O)N[C@@H](CC(C)C)C(=O)N[C@@H](CC(=O)O)C(=O)N[C@@H](CCC(=O)O)C(=O)N[C@H](C(=O)N[C@H](C(=O)N[C@@H](CCCCN)C(=O)N[C@@H](CC(=O)O)C(=O)O)C(C)C)[C@@H](C)CC` the Kd ratio was 11 (Fab B11 antibody (human); binding, biolayer interferometry; reference: alanine mutant over wild type).
The specific activity of `CCCCCCCC(=O)OC(C#N)c1ccc2cc(OC)ccc2c1` (racemic) is reported as 3.5 pmol/min/µg (Carboxylesterase 3 (CES3, Homo sapiens, UniProt Q6UWW8); substrate; 50 µM, pH 8, 37 °C, enzyme purity 3%).
`Nc1ncc2ncn([C@@H]3O[C@@H]4COP(=O)(O)O[C@H]5[C@@H](O)[C@H](n6cnc7cnc(N)nc76)O[C@@H]5COP(=O)(O)O[C@H]4[C@H]3O)c2n1`: binding “no binding” (ydaO riboswitch, Bacillus subtilis, wild type; competition gel shift; up to 200 µM, with: c-di-AMP).
For `CC1=N/C(=C\c2cc3cc4c5c(c3oc2=O)CCCN5CCC4)C(=O)N1C`, the Kd was 1480 nM (T1, DNA G4 pilE G-quadruplex (Neisseria gonorrhoeae); fluorescence titration; pH 7.4, K+ 100 mM).
For `CC(C)C[C@H](NC(=O)[C@H](CC(C)C)NC(=O)[C@H](CCC(=O)O)NC(=O)[C@@H](N)CS)C(=O)O`, the remaining activity was 40.6% (PPO3 (Agaricus bisporus, UniProt C7FF04); enzyme activity, inhibitor; 200 µM).
For `CC(C)C[C@H](NC(=O)CNC(=O)[C@H](CC(C)C)NC(=O)[C@@H]1CCCN1C(=O)CNC(=O)[C@H](Cc1ccccc1)NC(=O)OCC1c2ccccc2-c2ccccc21)C(=O)N[C@@H](CCCNC(=N)N)C(=O)N[C@@H](CO)C(=O)N[C@@H](CCCCN)C(=O)O`, the hydrolysis product was 64% (Matrix metalloproteinase-9 (MMP9, Homo sapiens, UniProt P14780); substrate, HPLC; 500 µM, 72 h, pH 7.5, 37 °C).
For `CSCC[C@H](NC(=O)[C@H](CO)NC(=O)[C@@H](NC(=O)[C@H](CCC(N)=O)NC(=O)[C@@H](CCCNC(=N)N)NC(=O)[C@@H](CCCNC(=N)N)NC(=O)[C@@H](CCCCN)NC(=O)[C@@H](CCCNC(=N)N)NC(C)=O)[C@@H](C)O)C(=O)N[C@H](C(=O)N[C@@H](CC(=O)O)C(=O)N[C@@H](Cc1ccccc1)C(=O)N[C@@H](Cc1ccc(O)cc1)C(=O)N[C@@H](Cc1c[nH]cn1)C(=O)N[C@@H](CO)C(=O)N[C@H](CCCCN)C(=O)N[C@H](CCCNC(=N)N)C(=O)N[C@H](CCCNC(=N)N)C(N)=O)[C@@H](C)O`, “entropic term −TΔS” read 12 ± 0.717 kcal/mol (Proliferating cell nuclear antigen (PCNA, Homo sapiens, UniProt P12004); binding, isothermal titration calorimetry; pH 7.4, 25 °C, 300 mM NaCl, with: p21 peptide).
`C=C1C(=O)O[C@@H]2[C@H]3C(CO)=CC(=O)C3=C(C)C[C@H](OC(=O)Cc3ccc(O)cc3)[C@@H]12` — result for “Trp emission peak wavelength”: 294 nm (Alpha-glucosidase MAL12 (MAL12, Saccharomyces cerevisiae S288c, UniProt P53341); synchronous fluorescence, Δλ 60 nm; up to 65.22 µM, 298 K, red-shifted from 288 nm).
With `CCc1nc2cc3ccccc3cc2cc1C(=O)N[C@@H](CCCCN)C(=O)N[C@@H](C/C=C/C[C@H](NC(=O)[C@H](CCCCN)NC(=O)c1cc2cc3ccccc3cc2nc1CC)C(=O)N1CCC[C@H]1C(=O)NCCCN)C(=O)N1CCC[C@H]1C(=O)NCCCN` the residence time was 173 s ((CAG)10 RNA; SPR).
For `O=C(CCn1c(=O)oc2ccccc21)N(c1ccc(F)cc1)c1ccc(F)cc1`, “maximum fold increase” read 4.8 ± 1.1 (Proteasome subunit alpha type-2/Proteasome subunit alpha type-6, 20S proteasome (Homo sapiens, UniProt P25787+P60900); proteolysis, activator, fluorogenic peptide; purified 20S proteasome; up to 30 µM, with: Suc-LLVY-AMC, Z-LLE-AMC, Boc-LRR-AMC; reference: vehicle).
The Kd ratio of `OC(Cc1cc(-c2ccc(C(O)C(F)(F)F)s2)sc1-c1ccc(-c2sc(-c3ccc(C(O)C(F)(F)F)s3)cc2CC(O)C(F)(F)F)s1)C(F)(F)F` (stereo not shown) is reported as 15 (Microtubule-associated protein tau, 0N4R isoform, aggregated (MAPT, Homo sapiens, UniProt P10636); binding, fluorescence; 50% sucrose tau fraction; reference: 50% over 20% fraction).
For `O=C(O)CCc1ccc(O)cc1`, the -TΔS was 0.14 ± 0.04 kcal/mol (p-hydroxyphenylacetate 3-hydroxylase, reductase component (C1-hpah, Acinetobacter baumannii, UniProt Q6Q271); ITC; pH 7).
With `O=c1cnnc(Nc2ccc(O)cc2)[nH]1` the signal attenuation was 33.4 ± 4.7% (DNA dC->dU-editing enzyme APOBEC-3B, C-terminal domain (Homo sapiens, UniProt Q9UH17); binding, 1H CPMG NMR; 20 µM protein).
For `Oc1c(C(Nc2nc3ccccc3s2)c2cccc(OCc3ccccc3)c2)ccc2cccnc12` (stereo not shown), the Hill slope was 1.05 ± 0.05 (Genome polyprotein, NS2B-NS3 protease (Dengue virus type 2, UniProt P14340); enzyme activity, inhibitor; 0.1% CHAPS, with: Bz-Nle-Lys-Arg-Arg-AMC substrate).
`Cc1cc(N2CC[C@@](C#N)(C3(C)CC3)C2=O)cc(C(=O)NCc2cc(F)cc(-c3cnn(C)c3)c2)n1` gave a melting temperature of 78.5 °C (Proline--tRNA ligase (Plasmodium falciparum, UniProt Q8I5R7); thermal shift; no substrate).
For `COc1cc(C2CC(=O)Nc3nc(N)[nH]c(=O)c32)ccc1O` (stereo not shown), the ΔH was -16.5 ± 1.2 kcal/mol (uncharacterized protein (Leishmania donovani, UniProt A0A3Q8IA09); competitive ITC; with: glutamate 60 µM).
For `CC(=O)N[C@@H]1[C@@H](O[C@@H]2O[C@H](C(=O)O)[C@@H](O[C@@H]3O[C@H](COS(=O)(=O)O)[C@@H](OS(=O)(=O)O)[C@H](O[C@@H]4O[C@H](C(=O)O)[C@@H](O[C@@H]5O[C@H](COS(=O)(=O)O)[C@@H](OS(=O)(=O)O)[C@H](O[C@@H]6O[C@H](C(=O)O)[C@@H](OS(=O)(=O)O)[C@H](OS(=O)(=O)O)[C@H]6OS(=O)(=O)O)[C@H]5NC(C)=O)[C@H](OS(=O)(=O)O)[C@H]4OS(=O)(=O)O)[C@H]3NC(C)=O)[C@H](OS(=O)(=O)O)[C@H]2OS(=O)(=O)O)[C@H](OS(=O)(=O)O)[C@@H](COS(=O)(=O)O)O[C@H]1N=[N+]=[N-]`, “binding affinity ratio” read 15 fold (Fibroblast growth factor 1 (FGF1, Homo sapiens, UniProt P05230); FP competition; reference: cpd over monovalent azide analogue, higher = stronger binding).
For `CC[C@H](C)[C@H](NC(=O)[C@H](CCC(N)=O)NC(=O)[C@@H](NC(=O)[C@@H]1CCCN1[C@@H]1CN(C(=O)[C@H](CCCCN)NC(=O)[C@H](CC(N)=O)NC(=O)[C@@H](NC(=O)[C@@H](NC(=O)[C@H](CCC(N)=O)NC(=O)[C@@H](N)C(C)C)[C@@H](C)CC)[C@@H](C)CC)CC[C@H]1NS(=O)(=O)c1ccc(C)cc1)C(C)C)C(=O)N[C@H](C(=O)N[C@@H](Cc1ccc(O)cc1)C(=O)N[C@@H](CCCCN)C(N)=O)C(C)C`, fibrillization inhibition read “inactive” (Islet amyloid polypeptide (IAPP, Homo sapiens, UniProt P10997); inhibitor, ThT fluorescence; 1-fold over protein, pH 7.4, room temperature, with: IAPP 5 µM).
`O=c1c2ccccc2n(CC2CC2)c(=O)n1O` — result for “maximal single-turnover rate”: ~0.002 min⁻¹ (Flap endonuclease 1 (Homo sapiens, UniProt P39748, R100A); inhibitor; 100 µM, 37 °C, with: double-flap substrate DF1).
`COC(=O)C1=C(C)NC(C)=C(C(=O)OC)C1c1cccc(NC(=O)NCCCN2CCC(c3cccc(OC)c3)CC2)c1`: “binding affinity decrease” ~330 fold (Neuropeptide Y receptor type 1 (NPY1R, Homo sapiens, UniProt P25929, T280A); radioligand binding; concentration not given; reference: wild type).
`O=C(N/N=C/c1ccc(C[n+]2ccccc2)cc1)c1ccc2ccc3ccc(C(=O)N/N=C/c4ccc(C[n+]5ccccc5)cc4)nc3c2n1` gave an IC50 of > 2500 nM (T2, DNA hairpin, 8 bp stem, HEG linker; thiazole orange displacement, competitor, fluorescent indicator displacement; pH 7.2, KCl 100 mM).
`FC(F)C(F)(F)c1nc2ccccc2[nH]1` — result for binding: “active” (Dual specificity protein phosphatase 3 (DUSP3, Homo sapiens, UniProt P51452); ligand-observed 19F NMR; concentration not given, with: DUSP3 4 or 8 µM).
`COc1ccc(S(=O)(=O)n2nc(OC(=O)c3ccccc3)cc2N)cc1`: “concentration for full binding” 0.4 mM (Genome polyprotein, NS2B-NS3 protease (dengue virus type 2, UniProt P29990); 298 K, with: protease 0.4 mM).
`CN(C)c1ccc2cc(C(=O)COn3nnc4ccccc43)c(=O)oc2c1` has a labeling half-time of 7 min (pyp (Halorhodospira halophila, UniProt P16113); covalent fluorescent labeling, in-gel fluorescence).
For `CC(C)CN(CC(C)C)C(=O)/C=C/C=C/c1ccc2c(c1)OCO2`, the Hill coefficient was 1.3 ± 0.3 (Gabra2/Gabrb2, with γ2S subunit (Rattus norvegicus, UniProt P23576+P63138); GABA current potentiation, positive modulator, two-electrode voltage clamp; Xenopus oocytes expressing α2β2γ2S; with: GABA EC3-7).
